Experimental data from different studies.
Protocols differ between the studies behind these lines. In brackets after ≈: the same amount, converted by molar mass.
Organism: Cryptococcus neoformans

| SMILES | assay | system | conditions | scale | measurement | value |
| --- | --- | --- | --- | --- | --- | --- |
| C[C@@H](c1ccn(Cc2ccc(F)cc2)n1)[C@](O)(Cn1cnnn1)c1ccc(F)cc1F | growth, broth microdilution | H99 | 72 h, 30 °C, ≥50% inhibition |  | MIC | 0.125 µg/mL (≈ 0.292 µM) |
| O=c1c(O)cccc(S(=O)(=O)c2ccccc2)c1O | microbial growth, broth dilution |  | 13 h |  | MIC80 | 50 µM (≈ 13.9 µg/mL) |
| C[C@@H](c1ccn(Cc2cccc(Cl)c2F)n1)[C@](O)(Cn1cnnn1)c1ccc(F)cc1F | growth, broth microdilution | H99 | 72 h, 30 °C, ≥50% inhibition |  | MIC | < 0.008 µg/mL |
| C/C=C/CNC(=N)NCCCCCCCCN1CCCc2cc(F)ccc2COc2ccccc2CNC(=N)NC1=O | microbial growth, broth dilution |  | 24 h |  | MIC90 | 3.12 µg/mL (≈ 5.38 µM) |
| CC(C)Sc1cccc(O)c(=O)c1O | microbial growth, broth dilution |  | 13 h |  | MIC80 | 2.6 µM (≈ 0.552 µg/mL) |
| C/C=C/CNC(=N)NCCCCCCCCN1CCCc2ccc(OC(F)(F)F)cc2COc2ccccc2CNC(=N)NC1=O | microbial growth, broth dilution |  | 24 h |  | MIC90 | 4 µg/mL (≈ 6.19 µM) |
| CCCCCCCCCCCCCCCC(=O)NCC(=O)N(CC(=O)N(CCCCN)CC(=O)N(CCN)CC(=O)N(CC(N)=O)C1CCCCC1)C1CCCCC1 | broth microdilution |  | 72 h, 35 °C |  | MIC | 3.13 µg/mL (≈ 3.82 µM) |
| C[C@@H](c1ccn(Cc2cc(F)c(F)c(F)c2)n1)[C@](O)(Cn1cnnn1)c1ccc(F)cc1F | growth, broth microdilution | H99 | 72 h, 30 °C, ≥50% inhibition |  | MIC | 0.0625 µg/mL (≈ 0.135 µM) |
| CCCCSc1cccc(O)c(=O)c1O | microbial growth |  | 13 h |  | MIC80 | 1 µM (≈ 0.226 µg/mL) |
| CN(Cc1cc(C2CC2)on1)C(=O)c1cccc(-c2ccc3c(c2)CCO3)c1 |  | H99 | together with: flucytosine |  | FIC index | 2 |
| C[C@@H](c1ccn(Cc2ccc(OC(F)(F)F)cc2)n1)[C@](O)(Cn1cnnn1)c1ccc(F)cc1F | growth, broth microdilution | H99 | 72 h, 30 °C, ≥50% inhibition |  | MIC | < 0.008 µg/mL |
| CCCCCCCCCC1CC2CCCC3CC(CCCCCCCCC)NC(=N1)N23 (stereo not shown) | microbial growth | ATCC90113 |  |  | IC50 | 2.39 µM |
| C/C=C/CNC(=N)NCCCCCCCCN1CCCc2ccc(C)cc2COc2ccccc2CNC(=N)NC1=O | microbial growth, broth dilution |  | 24 h |  | MIC90 | 4 µg/mL (≈ 6.95 µM) |
| CCCCS(=O)(=O)c1cccc(O)c(=O)c1O | microbial growth, broth dilution |  | 13 h |  | MIC80 | 50 µM (≈ 12.9 µg/mL) |
| C[C@@H](c1ccn(Cc2ccc(C#N)cc2)n1)[C@](O)(Cn1cnnn1)c1ccc(F)cc1F | growth, broth microdilution | H99 | 72 h, 30 °C, ≥50% inhibition |  | MIC | 1 µg/mL (≈ 2.3 µM) |
| CCCCCC1CC2CCCC3CC(C)N=C(N1)N32 (stereo not shown) | fungal growth | ATCC 90113 |  |  | MFC | 3.96 µM (≈ 1.04 µg/mL) |
| C[C@@H](c1ccn(Cc2cccc(C(F)(F)F)c2)n1)[C@](O)(Cn1cnnn1)c1ccc(F)cc1F | growth, broth microdilution | H99 | 72 h, 30 °C, ≥50% inhibition |  | MIC | < 0.008 µg/mL |
| CCCCCCCCCC1CC2CCC3CC(CCCCCCCCC)NC(=N1)N23 (stereo not shown) | fungal growth | ATCC 90113 |  |  | MFC | 2.99 µM (≈ 1.25 µg/mL) |
| S=c1[nH]c2cccc(Cl)c2n1CCOc1ccccc1 | Mpk1 phosphorylation, Western blot |  | concentration not given, together with: calcofluor white | baseline: calcofluor white alone | inhibition | 90% |
| O=c1c(O)c(S(=O)(=O)Cc2ccccc2)ccc(S(=O)(=O)Cc2ccccc2)c1O | microbial growth, broth dilution |  | 13 h |  | MIC80 | 73 µM (≈ 32.6 µg/mL) |
| O=C(NCCNCCO)c1cn(Cc2ccc(F)cc2)c2cc(Cl)c(OCc3ccc(C(F)(F)F)cc3)cc2c1=O |  | ATCC 208821 |  | ≥80% growth inhibition | MIC | < 0.25 µg/mL |
| CSc1cccc(O)c(=O)c1O | microbial growth, broth dilution |  | 13 h |  | MIC80 | 28 µM (≈ 5.16 µg/mL) |
| C[C@@H](c1ccn(Cc2c(F)cc(Cl)cc2F)n1)[C@](O)(Cn1cnnn1)c1ccc(F)cc1F | growth, broth microdilution | H99 | 72 h, 30 °C, ≥50% inhibition |  | MIC | < 0.008 µg/mL |
| O=c1c(O)cccc(SCc2ccccc2)c1O | microbial growth, broth dilution |  | 13 h |  | MIC80 | 0.55 µM (≈ 0.143 µg/mL) |
| COc1cc(Cn2ccc([C@H](C)[C@](O)(Cn3cnnn3)c3ccc(F)cc3F)n2)ccc1F | growth, broth microdilution | H99 | 72 h, 30 °C, ≥50% inhibition |  | MIC | < 0.008 µg/mL |

Excerpt of the above:
| SMILES | assay | system | conditions | scale | measurement | value |
| --- | --- | --- | --- | --- | --- | --- |
| CCCCS(=O)(=O)c1cccc(O)c(=O)c1O | microbial growth, broth dilution |  | 13 h |  | MIC80 | 50 µM (≈ 12.9 µg/mL) |
| C[C@@H](c1ccn(Cc2ccc(C#N)cc2)n1)[C@](O)(Cn1cnnn1)c1ccc(F)cc1F | growth, broth microdilution | H99 | 72 h, 30 °C, ≥50% inhibition |  | MIC | 1 µg/mL (≈ 2.3 µM) |
| CCCCCC1CC2CCCC3CC(C)N=C(N1)N32 (stereo not shown) | fungal growth | ATCC 90113 |  |  | MFC | 3.96 µM (≈ 1.04 µg/mL) |
